Published values of several laboratories.
Lines come from different studies, so protocols differ. “And” joins repeats or separate records; there may be more than shown. ± gives the spread as reported.

SMILES	assay	test system	setting	how to read	remaining compound
[Br-].c1ccc(-c2nn(-c3ccccn3)[n+](-c3ccccc3)n2)cc1	HPLC	fetal bovine serum	24 h	–	100%
C=C1C[C@@]23CC[C@H]4[C@@](C)(CCC[C@@]4(C)C(=O)O[C@@H]4O[C@H](CO)[C@@H](O)[C@H](O)[C@H]4O)[C@@H]2CC[C@]1(O[C@@H]1O[C@H](CO[C@H]2O[C@H](CO)[C@@H](O)[C@H](O)[C@H]2O)[C@@H](O)[C@H](O)[C@H]1O[C@@H]1O[C@H](CO)[C@@H](O)[C@H](O)[C@H]1O)C3	HPLC	Britton-Robinson buffer	0.05 % w/v, time not given, pH 10	relative to: initial	85.2 ± 1.04%
CSCC(NC(=O)c1cc(Cl)ccc1Cl)C(=O)NC(CC(C)C)B(O)O (centres unmarked)	–	rat liver microsomes	3 µM, 60 min, pH 7.4, with: NADPH	–	61 ± 0.44%
CC(=O)N[C@@H](CC(C)C)C(=O)N[C@H](C(=O)N[C@@H](Cc1ccccc1)C(=O)N[C@]1(C)CCCCCCC=CCCC[C@@](C)(C(=O)N[C@@H](CO)C(=O)N[C@@H](C)C(=O)N[C@@H](C)C(N)=O)NC(=O)[C@H](CC2CCC2)NC(=O)[C@H](CCC(N)=O)NC(=O)[C@H](C)NC(=O)[C@H](Cc2c[nH]c3ccccc23)NC(=O)[C@H](Cc2ccc(O)cc2)NC(=O)[C@H](CCC(=O)O)NC1=O)[C@@H](C)O	–	HCT-116 whole cell homogenate	1 µM, 4 h	–	~90%
CC(C)(CN)S[Se]Cc1ccc(-c2cccc(C(O)c3ccc(Cl)c(Cl)c3)c2)cc1 (centres unmarked)	–	rat liver microsomes with NADPH	1 h	–	77%
Fc1cc(Cl)c(Nc2ccccc2Cc2nnn[nH]2)c(Cl)c1	–	human liver microsomes	30 min, with: NADPH	–	90 ± 8.3%
Cc1cc(N)nc(C[C@@H]2CNC[C@@H]2OCCCCCc2cccc(N)n2)c1	in vitro metabolic stability	–	60 min, with: NADPH	–	85%
COC(=O)c1ccc2c(c1)NC(=O)/C2=C(\Nc1ccc2c(c1)CCN2C(=O)CN1CCOCC1)c1ccccc1	–	CD-1 mouse plasma	1 µM, 4 h, 37 °C	–	85.2% and 85%
Fc1ccc(Nc2c(Cl)cccc2Cl)c(Cc2nnn[nH]2)c1	–	human liver microsomes	30 min, with: NADPH	–	74 ± 6.4%
C[C@H](CCC(=O)NCCc1ccc(-c2ccccc2)cc1)[C@H]1CC[C@H]2[C@@H]3CC[C@@H]4CC(=O)CC[C@]4(C)[C@H]3CC[C@]12C	–	simulated intestinal fluid	2 h	–	99.1%
O=c1[nH]c(N2CCC3(CC2)CN(CCO)c2cc(F)cc(F)c23)nc2c1CCCC2	–	mouse liver microsomes	concentration not given, time not given	–	18%
CCc1c2c(nc3ccc(O)cc13)-c1cc3c(c(=O)n1C2)COC(=O)[C@@]3(CC)OC(=O)[C@H](N)C(C)C	–	MCF7 cell lysate	5 µM, 120 min, 37 °C	–	40%
CC12CC3CC(C1)CC(NC(=O)NC1CCC(Oc4ccc(C(=O)O)cc4)CC1)(C3)C2 (centres unmarked)	–	human liver microsomes	1 µM, 30 min, 37 °C, 1 mg/mL microsomes, with: NADPH	–	64 ± 6%
CONC(=O)[C@H]1[C@@H](O)[C@@]2(O)c3c(cc(OC)nc3OC)O[C@@]2(c2ccc(C#N)cc2)[C@@H]1c1ccccc1	–	simulated gastric fluid with pepsin	50 µM, 1 h, pH 1.2, 37 °C	–	94.5 ± 0.7%
COc1cc(-c2cnc3nc2NCCCNS(=O)(=O)c2cccc(c2)N3)ccc1F	–	Sprague-Dawley rat liver microsomes	10 µM, 60 min, pH 7.4, 37 °C, with: NADPH	–	90%
[Ru+2].c1ccc(-c2cccc(-c3ccccn3)n2)nc1.c1ccc(-c2ccccn2)nc1.c1cnccn1	–	water	24 h, 37 °C	–	100%
COc1cc(NC(C)=O)c2c(c1O)-c1c(OC)c(OC)cc3c1C(C2)N(C)CC3 (centres unmarked)	–	rat brain homogenate	5 µg/mL, 24 h, room temperature, post-preparative storage	–	92.1 ± 3.1%

Excerpt of the above:
SMILES	assay	test system	setting	how to read	remaining compound
CC(=O)N[C@@H](CC(C)C)C(=O)N[C@H](C(=O)N[C@@H](Cc1ccccc1)C(=O)N[C@]1(C)CCCCCCC=CCCC[C@@](C)(C(=O)N[C@@H](CO)C(=O)N[C@@H](C)C(=O)N[C@@H](C)C(N)=O)NC(=O)[C@H](CC2CCC2)NC(=O)[C@H](CCC(N)=O)NC(=O)[C@H](C)NC(=O)[C@H](Cc2c[nH]c3ccccc23)NC(=O)[C@H](Cc2ccc(O)cc2)NC(=O)[C@H](CCC(=O)O)NC1=O)[C@@H](C)O	–	HCT-116 whole cell homogenate	1 µM, 4 h	–	~90%
CC(C)(CN)S[Se]Cc1ccc(-c2cccc(C(O)c3ccc(Cl)c(Cl)c3)c2)cc1 (centres unmarked)	–	rat liver microsomes with NADPH	1 h	–	77%
Fc1cc(Cl)c(Nc2ccccc2Cc2nnn[nH]2)c(Cl)c1	–	human liver microsomes	30 min, with: NADPH	–	90 ± 8.3%
